Results gathered from unrelated publications.
A part holds a random share of what one study measured. Substitutions count along the parent as printed.

Sample 1 — target: CCND2, cyclin fold, Cln2 fusion (human); method: yeast growth competition, sequencing; matrix: yeast; setting: weak parent motif; reference: not given; reading: higher = stronger binding; endpoint: normalised enrichment score
Starting sequence: SLBP docking peptide (human); ARYKRKLLINDFG; partner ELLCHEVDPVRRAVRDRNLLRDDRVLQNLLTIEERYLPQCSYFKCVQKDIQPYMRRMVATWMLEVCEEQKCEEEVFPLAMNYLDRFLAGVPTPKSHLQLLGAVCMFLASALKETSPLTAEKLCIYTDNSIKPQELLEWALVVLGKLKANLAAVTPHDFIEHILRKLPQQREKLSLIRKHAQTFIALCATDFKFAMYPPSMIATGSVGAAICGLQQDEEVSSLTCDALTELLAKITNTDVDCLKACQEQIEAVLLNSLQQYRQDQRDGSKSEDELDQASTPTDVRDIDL
Variant = A1H; result = 0.165
Variant = K4C; result = -0.359
Variant = N10C; result = 0.226
Variant = R2Y; result = 0.934
Variant = K4F; result = 0.193
Variant = L7M; result = 0.53
Variant = I9F; result = 0.352
Variant = N10P; result = -0.0457
Variant = K6S; result = 0.0495
Variant = I9H; result = 0.325
Variant = Y3I; result = 0.275
Variant = Y3L; result = 0.897
Variant = K6W; result = 0.636
Variant = R2S; result = -0.0427
Variant = L8H; result = -0.168
Variant = R5H; result = -0.063
Variant = F12P; result = 0.196
Variant = G13I; result = -0.205
Variant = I9Q; result = -0.365
Variant = R2K; result = 0.247
Variant = F12C; result = -0.151
Variant = R5T; result = -0.197
Variant = G13F; result = 0.255
Variant = L7Q; result = 0.183
Variant = I9G; result = 0.0487

Sample 2 — method: RNA Bind-n-Seq; form: RNA; matrix: in vitro; tested at: 200 nM; setting: whole 134-nt RNA, ends assumed; together with: 150 mM KCl; reference: input library; reading: higher = stronger binding; endpoint: log2 enrichment
Target: Ras GTPase-activating protein-binding protein 1, full length (G3BP1, Homo sapiens, UniProt Q13283)
Sequence of UniProt Q13283 (whole entry, looked up): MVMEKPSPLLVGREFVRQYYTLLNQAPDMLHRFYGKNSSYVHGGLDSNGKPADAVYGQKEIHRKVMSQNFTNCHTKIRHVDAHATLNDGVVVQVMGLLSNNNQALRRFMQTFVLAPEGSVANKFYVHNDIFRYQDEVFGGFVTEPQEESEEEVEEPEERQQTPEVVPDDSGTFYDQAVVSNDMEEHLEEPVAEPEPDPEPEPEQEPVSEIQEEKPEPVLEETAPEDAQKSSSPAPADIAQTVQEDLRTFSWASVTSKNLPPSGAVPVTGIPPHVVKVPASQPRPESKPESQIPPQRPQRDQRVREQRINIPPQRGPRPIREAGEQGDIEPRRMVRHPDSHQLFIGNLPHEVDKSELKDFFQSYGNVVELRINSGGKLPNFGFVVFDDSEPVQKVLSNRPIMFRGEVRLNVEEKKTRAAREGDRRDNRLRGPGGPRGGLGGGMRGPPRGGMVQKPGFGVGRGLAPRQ
All sequences stand within: GGGAGUUCUACAGUCCGACGAUC … UGGAAUUCUCGGGUGUCAAGG
Strand = UGCCUACGUAAUUUUUUAUCUUGAAAUAUUCAAAAUUAGGAGCCAGAUGACCAAGAUGCUCCAGAUGAACAUGAGUCGCCUCCACCUGAA; result = 0.172
Strand = CCUGUGCUACACAUCGUAUGUACCGAAUCGGGAAAAAGGGUUUUUUUGGGAAAAAAAGGGAAAGUAUUAUGUUACGCCGUUCGGAUCUGC; result = -1.06
Strand = AGUCCUGUGCUACACAUCGUAUGUACCGAAUCGGGGUGGGGUUUUUGGGGUUUGGGGAAAGUAUUAUGUUACGCCGUUCGGAUCUGCACU; result = 0.109
Strand = UGGCCCUGGUGGCAUGCGGGGAGGAAGAGGUGGCUUCAUGGAUCGUGGUGGUCCCGGUGGAAUGUUCAGAGGUGGCCGUGGUGGAGACAG; result = 0.488
Strand = UAACUUUAGAGGGGGAUCUGAUGGAUAUGGCAGUGGACGUGGAUUUGGGGAUGGCUAUAAUGGGUAUGGAGGAGGACCUGGAGGUGGCAA; result = 0.631
Strand = UCCUGUGCUACACAUCGUAUGUACCGAAUCAAACCCCCAAAUUUUUAAACCCCCCCAAAAAAGUAUUAUGUUACGCCGUUCGGAUCUGCA; result = -0.0352
Strand = CACAGACAACACGCACCCACACAGACACAGAGGGAAGGGGUUGGGAUGGGGACAGGGUGCACAGCAAAGCGGGGUAGGACCCCAGCCCCU; result = 1.97
Strand = UCCUGUGCUACACAUCGUAUGUACCGAAUCGGGGUUUUUGGGGUUUUUGGGGUUUGGGGAAAGUAUUAUGUUACGCCGUUCGGAUCUGCA; result = 0.688
Strand = CACAGACAACACGCACCCACACAGACACAGAGGGAAGGGGUUGGGAUGGGGACAGGGUGCACAGCAGGGCGGGGUAGGACCCCAGCUCCU; result = 1.92
Strand = CAAGUCCUGUGCUACACAUCGUAUGUACCGAAUCGGGGUUUGGGUUUGGGUUUGGAAAGUAUUAUGUUACGCCGUUCGGAUCUGCACUUC; result = -0.234
Strand = UCCUGUGCUACACAUCGUAUGUACCGAAUCGGGUUUUUUGGGUUUUUUGGGGUUUUUUGGAAAGUAUUAUGUUACGCCGUUCGGAUCUGC; result = -0.164
Strand = UCCUGUGCUACACAUCGUAUGUACCGAAUCGGGUUUUUGGGUUUUUUUGGGUUUUUGGGAAAGUAUUAUGUUACGCCGUUCGGAUCUGCA; result = -0.257
Strand = ACCAUGCAGGUGGGCAUCUUUGGGAAGUGGGGCAAGGGGGGGAUAGGGAGGGGGGUAACACUUUGGGAACAGGUGGUUCCAGGUCGUUUC; result = 0.92
Strand = UAAUUUUAGAGGAGGAUCUGAUGGAUAUGGCAGUGGACGUGGAUUUGGGGAUGGCUAUAAUGGGUAUGGAGGAGGACCUGGAGGUGGCAA; result = 0.312

Sample 3 — method: protein-binding microarray; form: double-stranded DNA, one strand shown; matrix: in vitro; tested at: 250 nM; setting: 60-bp whole probe; together with: salmon DNA 0.4 mg/ml; reference: random background probes; reading: higher = stronger binding; endpoint: log fluorescence; all sequences stand within: GCCTAGCAC … GTCTTGATTCGCTTGACGCTGCTG
Target: Interferon regulatory factor 7, full length, phosphomimetic (IRF7, Homo sapiens, UniProt Q92985, residues 1-503, S101K/S471D/S472D/S475D/S476D/S477D/S483D/S484D/S487D)
Construct (chain): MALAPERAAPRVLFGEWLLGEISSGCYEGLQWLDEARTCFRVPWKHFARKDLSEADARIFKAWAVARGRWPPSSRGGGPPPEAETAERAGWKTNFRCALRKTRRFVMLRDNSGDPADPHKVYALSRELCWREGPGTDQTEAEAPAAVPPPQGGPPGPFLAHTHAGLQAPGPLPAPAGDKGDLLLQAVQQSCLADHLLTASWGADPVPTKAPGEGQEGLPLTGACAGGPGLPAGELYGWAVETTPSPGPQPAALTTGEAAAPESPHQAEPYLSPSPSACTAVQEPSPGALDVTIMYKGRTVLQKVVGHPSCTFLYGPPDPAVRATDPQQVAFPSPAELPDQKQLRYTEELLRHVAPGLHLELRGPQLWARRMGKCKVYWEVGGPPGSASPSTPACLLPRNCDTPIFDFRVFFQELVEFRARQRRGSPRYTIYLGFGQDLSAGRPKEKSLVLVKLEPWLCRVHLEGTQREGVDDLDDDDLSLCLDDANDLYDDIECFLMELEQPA
Strand = TTAGAACTGAGTTTCGCTTAGTGCTAG; result = 5.56 z-score
Strand = TTAGGTTTCCTTTTTCTTTAGTGCTAG; result = 5.22 z-score
Strand = GACGAACTGAGTCTCGAGACGTGCTAG; result = 0.136 z-score
Strand = TTAGGTATCCTACTACTTTAGTGCTAG; result = 0.0973 z-score
Strand = TTAGGTTTCCTTCTCCTTTTGTGCTAG; result = 2.59 z-score
Strand = CTCTTGTTCTCTCTGGCCCTGTGCTAG; result = 0.82 z-score
Strand = TTAGATTTCGGGTTTCGATCAGTGCTA; result = 4.4 z-score
Strand = TCAAATCTCTTTCCTTAACTGTGCTAG; result = 0.724 z-score
Strand = GACGGTATCGGTCGCGGGACGTGCTAG; result = 0.00315 z-score
Strand = TTAGATTTCGGGTTTCGATTCGTGCTA; result = 11.4 z-score
Strand = GTAGGTTTCGGGTATCGGTTAGTGCTA; result = 7.43 z-score
Strand = TTAGGTATCCTTCTTCTTTAGTGCTAG; result = 0.566 z-score
Strand = GACGGACTGGCTATCGGGACGTGCTAG; result = -0.628 z-score
Strand = TTAGGCATCGGTTTCGGTTAGTGCTAG; result = 8.94 z-score
Strand = GTCGATATCGGGTTTCGAGACGTGCTA; result = 3.64 z-score
Strand = GACGAACTGGTGTTTCGAGACGTGCTA; result = 0.558 z-score
Strand = GACGGTATCGGTTTCGGGAAGTGCTAG; result = 6.34 z-score
Strand = TCACATCTCCAGTAGCCTACTGTGCTA; result = 0.287 z-score
Strand = TGAGATATCAGTATCGATTAGTGCTAG; result = 0.652 z-score
Strand = TTAGGTGTCGGACTGGGTTAGTGCTAG; result = -0.478 z-score
Strand = TTAGGTATCCTTCACCTTTAGTGCTAG; result = 0.0424 z-score
Strand = GACGGCCTGCTACTGCTGACGTGCTAG; result = -0.972 z-score

Sample 4 — method: RNA Bind-n-Seq; form: RNA; matrix: in vitro; tested at: 365 nM; reference: no-protein control; reading: higher = stronger binding; endpoint: RBNS enrichment (R)
Target: RNA binding protein fox-1 homolog 2, RRM domain, GST-SBP tag (RBFOX2, Homo sapiens, UniProt O43251-10, residues 100-194)
Setting: natural RNA segment, single round, ends assumed
All sequences stand within: GGGAGUUCUACAGUCCGACGAUC … UGGAAUUCUCGGGUGCCAA
Construct (chain): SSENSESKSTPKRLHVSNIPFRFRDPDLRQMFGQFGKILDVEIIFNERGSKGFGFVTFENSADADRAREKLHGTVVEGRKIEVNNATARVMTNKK
Strand = AAUUUUUAGUUGCUCUUUGUUUUCUCUGCCGCACUUUCCUGGUGCCCCACGCUUUUCUCUCUUCCUUCCCCUCUCAUUCUCCCUCUAAUGUGUGGUGCUUUGGUGAGCAA; result = 0.393
Strand = UUCUCCUCACCAGCAUGGUACCUGCCCUUACUGCUAGAGCAGCUGCUUGUAGAGGGACAUUCCCUCCUUCCCAGUUUUAACUGGUGGACCACAGUGGGGGGAAAAACAUU; result = 0.364
Strand = AGUGUGGUGGGAUGGCUGUCUUCUCUCUCCUUGUUACCUCCCUAGGAAAGAAGGGGUUGCUUUAUGGAUAAGCCUGUAGAAUCGGCUGCUUCCUAUGACUCCCUGGCUGC; result = 0.285
Strand = CCAUGGAGGUUAUUGCCUGCGUCCCAGAAUCAAGCAGUUGGGGUGCAGGAGGCUGACAUAGUGAUAUUGAGUAGUGAUUAGGAAAGGGGCGGUGUUGAACUGUUUGUGUA; result = 1.37
Strand = UUGUAUCACAAAUCAGUGUUAAAACACCAGAACUUUAGCCAAAAUAAAUGUCUUACAUUACAAAGGUUUGUUUUUUUGUCCUUCUUAUCACAGUUGGUAUUCUUUUACGU; result = 0.674
Strand = UCAUCCGUUUUUAAUUAUUUUAACUGACCCUUGACAAUCUUGUCAGCAAUAUAGGACUGUUGAACAAUCCCGGUGUGUCAGGACCCCCAAAUGUCACUUCUGCAUAAAGC; result = 0.8
Strand = CCUCCCAGCACCCCAGCUUGCUGGCUGCCCUCUUUGCCUUCUGGCCUCCAGCUGGGUGUGGGGGGGCGGAGCAAGGCGGGGGACAGACGCAGCACCUUCUUAGCGAUCUA; result = 1.14
Strand = ACUUUCUAGAUCAGAAAAAUUAUACACUACAGUUGAAGAGCUGAAUUCUACUAUGGAUGGAUGUUGUGAGCCCUUGCUUGGAAGCCUUCACCGUCUAGCUUCCCCAGGGU; result = 0.446
Strand = UGGCCCUGGUCCCACCUCUAAUCCCUACUGUCAUCAGGCACUACAGCCCAAAAAGAGGUGCUUGUGAGCACACCCACCCAAGUGAACCCAGUGGCUGCCAUGGUCCUCUU; result = 0.504
Strand = CUAGAGCGCUCAGCAGGUGAAGGCAGCAGGGGCCAUGGCCGGGAGCCAGGCCUAGCUUUGAACUGAGUUUCAAGGGCUGCCAAAGAGGGGCAGUGGGUUGGGGUUGUUUU; result = 0.73
Strand = AAGUGCUGGGAUUAAAGGCGUGGGCCACCACGCCCGGCUCAAAAAUACAUUUCUUAAAGUUGAAAUCAUUUGCUUCUUCCAUAAUGGGACGUUGAAACUUCUGCUUUCGG; result = 0.233
Strand = UUUGUACGUAUGAAUGAUAUCUUUGACCUCAAUGGAGGUUUGCAAAGACUGAGUGUUCAAACUACUGUACAUUUUUUUUCAAGUGCUAAAAAAUUAAACCAAGCAGCUUA; result = 0.536

Mixed results
Substance = PhoQ, residues 284 288 289 292 302 303 SSTLSG; target = PhoP, residues 12 14 15 18 19 AQCLL (Escherichia coli, UniProt P23836); test = Sort-seq, item: YFP reporter; system = E. coli; setting = PhoQ-PhoP variant library, together with: 10 µM Mg2+; scale = reference: high Mg2+ state, higher = stronger signaling; endpoint = fold induction; result = 0.479

Excerpt of the above (sample 1):
Variant = A1H; result = 0.165
Variant = K4C; result = -0.359
Variant = N10C; result = 0.226
Variant = R2Y; result = 0.934
